Experimental data of several laboratories.
Protocols differ between the studies behind these lines. Several values in a cell are separate wells, animals, samples, runs or records. Numbers after ± are the reported error.
CASP4: Caspase-4 (CASP4, Homo sapiens, UniProt P49662)
Chain of UniProt P49662 (whole entry, looked up): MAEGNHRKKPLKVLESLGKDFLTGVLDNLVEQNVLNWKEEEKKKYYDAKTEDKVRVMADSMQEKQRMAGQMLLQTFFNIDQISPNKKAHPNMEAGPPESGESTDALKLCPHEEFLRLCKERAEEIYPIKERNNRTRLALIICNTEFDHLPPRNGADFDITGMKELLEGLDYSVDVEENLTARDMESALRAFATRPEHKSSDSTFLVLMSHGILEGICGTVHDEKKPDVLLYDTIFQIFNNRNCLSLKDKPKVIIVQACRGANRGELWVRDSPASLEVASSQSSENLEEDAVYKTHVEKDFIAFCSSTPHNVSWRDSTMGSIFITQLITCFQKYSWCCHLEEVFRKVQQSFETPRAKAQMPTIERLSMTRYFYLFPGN
USP5: Ubiquitin carboxyl-terminal hydrolase 5 (USP5, Homo sapiens, UniProt P45974)
Chain of UniProt P45974 (whole entry, looked up): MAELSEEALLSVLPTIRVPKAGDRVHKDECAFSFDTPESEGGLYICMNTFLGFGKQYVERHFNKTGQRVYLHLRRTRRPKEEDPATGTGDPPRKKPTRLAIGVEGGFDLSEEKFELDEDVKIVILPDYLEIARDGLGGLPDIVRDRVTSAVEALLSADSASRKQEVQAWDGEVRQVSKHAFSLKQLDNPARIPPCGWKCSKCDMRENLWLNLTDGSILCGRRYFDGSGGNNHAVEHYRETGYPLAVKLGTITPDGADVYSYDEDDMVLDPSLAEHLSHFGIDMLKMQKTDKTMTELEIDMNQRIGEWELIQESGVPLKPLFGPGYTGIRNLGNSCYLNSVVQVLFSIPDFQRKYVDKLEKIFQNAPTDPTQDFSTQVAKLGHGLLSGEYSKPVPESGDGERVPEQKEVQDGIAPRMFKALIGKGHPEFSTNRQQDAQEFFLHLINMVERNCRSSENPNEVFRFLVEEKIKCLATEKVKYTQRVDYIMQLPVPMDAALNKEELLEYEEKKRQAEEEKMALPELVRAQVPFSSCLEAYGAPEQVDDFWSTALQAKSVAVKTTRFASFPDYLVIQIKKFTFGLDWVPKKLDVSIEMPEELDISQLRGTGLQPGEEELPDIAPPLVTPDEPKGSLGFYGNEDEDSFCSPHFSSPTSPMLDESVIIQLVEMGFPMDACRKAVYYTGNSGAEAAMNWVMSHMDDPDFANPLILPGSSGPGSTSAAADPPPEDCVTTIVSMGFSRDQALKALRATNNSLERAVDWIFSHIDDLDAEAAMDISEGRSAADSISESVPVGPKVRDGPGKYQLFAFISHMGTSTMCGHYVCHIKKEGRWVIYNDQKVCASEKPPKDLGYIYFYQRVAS
CASP9: Caspase-9 (CASP9, Homo sapiens, UniProt P55211)
Chain of UniProt P55211 (whole entry, looked up): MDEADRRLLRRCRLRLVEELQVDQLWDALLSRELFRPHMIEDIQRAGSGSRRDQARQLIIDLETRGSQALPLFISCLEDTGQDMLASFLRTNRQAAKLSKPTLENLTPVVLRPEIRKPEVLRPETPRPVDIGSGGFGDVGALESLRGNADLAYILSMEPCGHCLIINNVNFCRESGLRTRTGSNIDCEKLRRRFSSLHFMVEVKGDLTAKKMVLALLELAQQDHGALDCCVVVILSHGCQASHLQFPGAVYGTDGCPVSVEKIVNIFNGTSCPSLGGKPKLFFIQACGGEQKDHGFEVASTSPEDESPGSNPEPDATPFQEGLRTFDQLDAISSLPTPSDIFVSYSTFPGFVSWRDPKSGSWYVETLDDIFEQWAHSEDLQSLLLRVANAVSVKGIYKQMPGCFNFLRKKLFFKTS
Lysophospholipase-like protein 1: Lysophospholipase-like protein 1 (Mus musculus, UniProt Q3UFF7)
Chain of UniProt Q3UFF7 (whole entry, looked up): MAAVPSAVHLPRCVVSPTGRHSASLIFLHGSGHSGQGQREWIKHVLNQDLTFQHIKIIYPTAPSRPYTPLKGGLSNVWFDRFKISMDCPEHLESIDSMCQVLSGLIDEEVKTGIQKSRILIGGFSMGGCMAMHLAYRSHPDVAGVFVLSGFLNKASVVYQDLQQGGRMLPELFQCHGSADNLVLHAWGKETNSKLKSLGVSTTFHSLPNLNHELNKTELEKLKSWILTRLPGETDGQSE
EGFR L858R/T790M: Epidermal growth factor receptor (EGFR, Homo sapiens, UniProt P00533, L858R/T790M)
Chain of UniProt Q02127 (whole entry, looked up): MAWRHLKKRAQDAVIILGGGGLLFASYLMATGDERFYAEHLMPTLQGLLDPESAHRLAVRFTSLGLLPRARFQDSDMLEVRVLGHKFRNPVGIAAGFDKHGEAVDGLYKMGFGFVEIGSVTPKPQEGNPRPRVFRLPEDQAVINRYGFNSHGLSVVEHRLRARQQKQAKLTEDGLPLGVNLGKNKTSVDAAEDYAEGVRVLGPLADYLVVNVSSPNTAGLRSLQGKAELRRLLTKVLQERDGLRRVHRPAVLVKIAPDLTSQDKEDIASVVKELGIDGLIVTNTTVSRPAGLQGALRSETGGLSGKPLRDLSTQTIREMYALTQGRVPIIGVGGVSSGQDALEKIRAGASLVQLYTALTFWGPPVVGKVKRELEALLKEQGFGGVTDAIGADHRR
Chain of UniProt P17706 (whole entry, looked up): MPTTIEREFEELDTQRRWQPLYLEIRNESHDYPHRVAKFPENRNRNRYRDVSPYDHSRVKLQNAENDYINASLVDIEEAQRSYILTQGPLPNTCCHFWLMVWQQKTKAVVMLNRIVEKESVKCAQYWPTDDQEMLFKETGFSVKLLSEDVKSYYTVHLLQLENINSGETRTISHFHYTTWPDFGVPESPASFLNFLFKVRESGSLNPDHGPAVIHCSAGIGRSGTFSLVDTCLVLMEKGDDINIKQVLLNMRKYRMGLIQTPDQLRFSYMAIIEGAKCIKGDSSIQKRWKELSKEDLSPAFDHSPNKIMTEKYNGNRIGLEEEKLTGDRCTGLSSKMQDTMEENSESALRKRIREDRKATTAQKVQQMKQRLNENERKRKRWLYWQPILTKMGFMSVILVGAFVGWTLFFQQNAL
Chain of UniProt P35414 (whole entry, looked up): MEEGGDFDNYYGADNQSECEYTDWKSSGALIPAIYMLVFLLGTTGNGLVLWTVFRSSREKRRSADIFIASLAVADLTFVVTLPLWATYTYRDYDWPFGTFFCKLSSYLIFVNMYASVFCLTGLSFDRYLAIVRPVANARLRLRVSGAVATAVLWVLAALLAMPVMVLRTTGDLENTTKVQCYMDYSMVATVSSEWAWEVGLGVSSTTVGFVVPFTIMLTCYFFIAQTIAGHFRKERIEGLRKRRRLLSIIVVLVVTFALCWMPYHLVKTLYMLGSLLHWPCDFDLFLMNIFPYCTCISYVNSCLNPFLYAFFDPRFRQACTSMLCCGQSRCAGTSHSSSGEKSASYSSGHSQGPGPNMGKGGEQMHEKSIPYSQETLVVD
Chain of UniProt Q01337 (whole entry, unmodified, looked up): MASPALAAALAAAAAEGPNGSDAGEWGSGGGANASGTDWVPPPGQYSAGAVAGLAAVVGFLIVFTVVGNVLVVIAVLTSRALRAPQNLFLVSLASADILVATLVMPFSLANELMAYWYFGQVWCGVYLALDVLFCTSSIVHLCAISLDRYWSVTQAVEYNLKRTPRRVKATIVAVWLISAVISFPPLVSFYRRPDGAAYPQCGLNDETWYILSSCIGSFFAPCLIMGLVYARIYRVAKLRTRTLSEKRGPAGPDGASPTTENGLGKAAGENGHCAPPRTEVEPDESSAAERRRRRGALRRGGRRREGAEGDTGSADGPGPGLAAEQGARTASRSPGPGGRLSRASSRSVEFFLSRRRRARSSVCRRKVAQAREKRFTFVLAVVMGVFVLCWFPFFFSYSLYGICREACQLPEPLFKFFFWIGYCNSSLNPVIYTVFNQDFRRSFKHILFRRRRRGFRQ
Chain of UniProt Q9NR19 (whole entry, looked up): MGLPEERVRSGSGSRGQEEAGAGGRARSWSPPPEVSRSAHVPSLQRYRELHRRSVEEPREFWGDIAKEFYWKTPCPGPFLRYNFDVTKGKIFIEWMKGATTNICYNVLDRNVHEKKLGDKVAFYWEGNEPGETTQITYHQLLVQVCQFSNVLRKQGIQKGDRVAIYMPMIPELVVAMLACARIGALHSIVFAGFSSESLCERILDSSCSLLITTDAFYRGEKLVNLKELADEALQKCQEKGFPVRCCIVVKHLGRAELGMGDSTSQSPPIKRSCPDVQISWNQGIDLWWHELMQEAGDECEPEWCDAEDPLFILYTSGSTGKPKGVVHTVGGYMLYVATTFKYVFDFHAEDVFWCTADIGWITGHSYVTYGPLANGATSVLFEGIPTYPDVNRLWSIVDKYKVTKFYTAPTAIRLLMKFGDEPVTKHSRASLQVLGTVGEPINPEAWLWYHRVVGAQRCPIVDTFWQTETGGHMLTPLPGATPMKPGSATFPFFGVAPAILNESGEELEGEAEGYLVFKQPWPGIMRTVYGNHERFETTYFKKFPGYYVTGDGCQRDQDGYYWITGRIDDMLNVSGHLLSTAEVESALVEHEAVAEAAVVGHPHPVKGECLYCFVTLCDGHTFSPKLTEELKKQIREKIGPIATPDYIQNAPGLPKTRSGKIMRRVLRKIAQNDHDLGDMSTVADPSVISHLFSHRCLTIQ
Chain of UniProt Q9HB29 (whole entry, looked up): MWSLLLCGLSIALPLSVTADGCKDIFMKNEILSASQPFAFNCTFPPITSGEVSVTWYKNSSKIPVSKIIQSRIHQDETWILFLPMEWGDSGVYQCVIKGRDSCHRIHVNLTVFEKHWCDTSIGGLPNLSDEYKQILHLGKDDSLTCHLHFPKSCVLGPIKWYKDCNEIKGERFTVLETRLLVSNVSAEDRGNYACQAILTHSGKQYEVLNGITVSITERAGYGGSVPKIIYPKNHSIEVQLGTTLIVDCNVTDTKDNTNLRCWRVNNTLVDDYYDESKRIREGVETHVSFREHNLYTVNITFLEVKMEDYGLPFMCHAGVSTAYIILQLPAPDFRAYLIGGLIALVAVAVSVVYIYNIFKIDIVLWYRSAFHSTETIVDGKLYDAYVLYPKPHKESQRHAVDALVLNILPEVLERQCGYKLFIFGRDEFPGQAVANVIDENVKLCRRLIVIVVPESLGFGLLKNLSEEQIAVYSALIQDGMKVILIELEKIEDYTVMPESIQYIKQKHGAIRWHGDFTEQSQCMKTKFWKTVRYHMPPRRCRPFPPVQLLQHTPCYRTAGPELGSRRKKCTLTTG
Chain of UniProt P05109 (whole entry, looked up): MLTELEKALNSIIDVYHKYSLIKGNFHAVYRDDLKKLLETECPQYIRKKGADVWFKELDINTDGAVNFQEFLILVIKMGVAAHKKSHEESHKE

CCC[C@H](NC(=O)[C@H](CC(=O)O)NC(C)=O)C(=O)N1[C@H](C(=O)N[C@@H](CC(=O)O)C(=O)COC(=O)c2c(C)cccc2C)C[C@@H]2CCCC[C@@H]21
kobs/[I] (CASP4; inhibitor; recombinant enzyme): 17600 M⁻¹ s⁻¹

N#CN1CC[C@H](C(=O)Nc2nc3c(s2)CN(C(=O)Cn2cc(CNC(=O)CCCC[C@@H]4SC[C@@H]5NC(=O)N[C@@H]54)nn2)CC3)C1
iBAQ abundance (USP5; probe binding, affinity probe, neutravidin pull-down LC-MS/MS; HEK293T, cell lysate; 5 µM, 1 h, single replicate, unit not given; higher = more pulled down): 1.09e+06 and 934000 and 1.32e+06

COC(=O)[C@@]1(Cc2ccccc2)C=C(C(=O)OC(C)(C)C)C(=O)CC1
fraction bound (Mitogen-activated protein kinase 14 (MAPK14, Homo sapiens, UniProt Q16539, C162A); peptide binding, fluorescence polarization; 3.906 µM): 0.753

CC(=O)ON=C1Sc2ccccc2C1=O
inhibition (USP5; enzyme activity, inhibitor; 17 µM): 33%

C=CC(=O)N1CCCC(n2c(=O)c3ncccc3n(Cc3ccc(Oc4ccccc4)cc3)c2=O)C1 (centres unmarked)
remaining binding (Epidermal growth factor receptor (EGFR, Homo sapiens, UniProt P00533, L858R); cell-free assay, competition with immobilised ligand; 1 µM): 100%

CC(=O)N[C@H](C(=O)N[C@@H](CCO)C(=O)N[C@H](C(=O)N[C@@H](CC(=O)O)C(=O)COC(=O)c1c(C)cccc1C)C(C)C)C(C)C
kinact/KI (CASP9; enzyme activity, inhibitor): 7900 M⁻¹ s⁻¹

CN(/N=C/c1ccc(F)cc1C(=O)NO)c1nc(-c2ccccc2Cl)cs1
percent effect (Dihydroorotate dehydrogenase (quinone), mitochondrial (DHODH, Homo sapiens, UniProt Q02127); enzyme activity, inhibitor, DCIP colorimetric; 4.57 nM): 68% and 69.2% and 67.3%

CC[C@H](C)[C@H](NC(=O)[C@H](Cc1ccccc1)NC(=O)[C@H](CCC(=O)O)NC(=O)[C@H](CCCCN)NC(=O)[C@H](C)NC(=O)[C@H](C)NC(=O)[C@H](CCC(N)=O)NC(=O)CNC(=O)[C@H](CCC(=O)O)NC(=O)[C@H](CC(C)C)NC(=O)[C@H](Cc1ccc(O)cc1)NC(=O)[C@H]1CNC[C@@H]1NC(=O)[C@H](CO)NC(=O)C(C)(C)NC(=O)[C@H](CC(=O)O)NC(=O)[C@H](CO)NC(=O)[C@@H](NC(=O)[C@H](Cc1ccccc1)NC(=O)[C@@H](NC(=O)CNC(=O)[C@H](CCC(=O)O)NC(=O)[C@H](C)NC(=O)[C@@H](N)Cc1c[nH]cn1)[C@@H](C)O)[C@@H](C)O)C(=O)N[C@@H](C)C(=O)N[C@@H](Cc1c[nH]c2ccccc12)C(=O)N[C@@H](CC(C)C)C(=O)N[C@H](C(=O)N[C@@H](CCCCN)C(=O)NCC(=O)N[C@@H](CCCNC(=N)N)C(N)=O)C(C)C
efficacy (Glucagon-like peptide 1 receptor (GLP1R, Homo sapiens, UniProt P43220); cAMP production, agonist, GloSensor luminescence; HEK293; 15 min; relative to: GLP-1): 104 ± 2%

CC(=O)N[C@@H](CC(C)C)C(=O)N[C@@H](CCC(N)=O)C(=O)N[C@@H](CO)C(=O)N[C@@H](CC(=O)O)C(=O)COC(=O)c1c(C)cccc1C
kobs/[I] (CASP4; inhibitor; recombinant enzyme): 36400 M⁻¹ s⁻¹

CSCC[C@H](NC(=O)[C@H](CC(=O)O)NC(C)=O)C(=O)N[C@@H](Cc1ccc(O)cc1)C(=O)N[C@@H](Cc1ccc(O)cc1)C(=O)N[C@@H](CCCNC(=N)N)C(=O)N[C@@H](Cc1ccc(O)cc1)C(=O)N[C@@H](CC(N)=O)C(=O)NCC(=O)N[C@@H](CCCCN)C(=O)N[C@H](C(=O)N[C@@H](Cc1c[nH]c2ccccc12)C(=O)N[C@@H](Cc1c[nH]c2ccccc12)C(=O)N[C@@H](CCCNC(=N)N)C(=O)O)C(C)C
entropy change (Insulin (INS, Bos taurus, UniProt P01317); binding, isothermal titration calorimetry; concentration not given, pH 2.6, 25 °C): 72.1 cal/mol/K

CC(=O)N[C@H](C(=O)N[C@@H](CCC(=O)O)C(=O)N[C@@H](C)C(=O)N[C@@H](CC(=O)O)C(=O)COC(=O)c1c(C)cccc1C)C(C)C
kinact/KI (CASP9; enzyme activity, inhibitor): 131000 M⁻¹ s⁻¹

Nc1ncnc2c1ncn2C1OC(CN(CCCC2CNCc3c2ccc(Cl)c3Cl)CCC(N)C(=O)O)C(O)C1O (mixture of isomers)
ΔH-2 (Phenylethanolamine N-methyltransferase (PNMT, Homo sapiens, UniProt P11086); ITC; second site, SAH bound): 28.5 kJ/mol

CCCCCCCCCCCCC/C=C/C=O
isoTOP-ABPP competition ratio (Pseudouridylate synthase RPUSD2 (RPUSD2, Homo sapiens, UniProt Q8IZ73); competitive isoTOP-ABPP; Ramos soluble proteome; 100 µM, 60 min, with: iodoacetamide probe; relative to: DMSO over compound-treated, higher = stronger cysteine blockade): 0.8

Cc1cc(C)cc(COc2cc3c(cc2OCc2cc(C)cc(C)c2)C2CC(O)(Cc4cn(CCOCCOCCNC(=O)CCCCC5SCC6NC(=O)NC65)nn4)CC(C)N2CC3)c1 (centres unmarked)
SILAC ratio (ATP synthase F(1) complex subunit beta, mitochondrial (ATP5F1B, Homo sapiens, UniProt P06576); biotinylated probe pull-down; 10 µM probe; relative to: heavy over light): 1.68

Nc1nc(SCc2ccc(Cl)cc2)nn1S(=O)(=O)c1ccccc1
probe labeling increase (Lysophospholipase-like protein 1; enzyme activity, activator, gel-based ABPP; purified protein; concentration not given, with: FP-rhodamine; relative to: DMSO): 2.3 fold

Brc1ccc(CNc2ccc3cn[nH]c3c2)s1
inhibition (USP5; enzyme activity, inhibitor; 17 µM): 95%

Cn1c(=O)n(C2CCC(=O)NC2=O)c2ccc(C3CCN(CC(=O)Nc4cccc(CS(=O)(=O)N5CC[C@H](Nc6cccc(-c7sc(C(=O)O)c(OCC(=O)O)c7Cl)c6)CC5(C)C)c4)CC3)cc21 (some centres unmarked)
BLI binding response (Tyrosine-protein phosphatase non-receptor type 2 (PTPN2, Homo sapiens, UniProt P17706); degrader, bio-layer interferometry; 15.6 nM, biotinylated protein immobilised; higher = more binding): 0.081 a.u. and 0.0886 a.u.

CCOC(=O)N1CCN(C(=S)Nc2ccc3nsnc3c2)CC1
inhibition (USP5; enzyme activity, inhibitor; 17 µM): 74%

[3H]C([3H])([3H])OC1(C2=NCCN2)COc2ccccc2O1 (centres unmarked)
Bmax (Alpha-2C adrenergic receptor (Mus musculus, UniProt Q01337, N19Q); radioligand binding; HEK293 membranes; α2c(N19Q)-AR mutant): 0.21 ± 0.06 pmol/mg protein

O=C1c2sc(-c3ccc(N4CCC(F)C4)nc3F)nc2CCN1c1cccnc1 (centres unmarked)
inhibition (Apelin receptor (APLNR, Homo sapiens, UniProt P35414); ligand displacement, radioligand; 1 µM): 0%

CC(C)[C@@H]1NC(=O)[C@H](Cc2ccccc2)NC(=O)CSC[C@@H](C(N)=O)NC(=O)[C@H](CCC(=O)O)NC(=O)[C@H](CO)NC(=O)[C@H](Cc2c[nH]c3cccc(Cl)c23)NC(=O)[C@H](C2CCCCC2)NC(=O)[C@H](C(C)C)NC(=O)[C@H](Cc2ccc(O)cc2)NC(=O)[C@H](CC(=O)O)NC(=O)[C@H](Cc2c[nH]c3ccccc23)NC(=O)[C@H](Cc2ccc(N)nc2)NC(=O)[C@H](Cc2c[nH]c3ccc(Cl)cc23)NC(=O)[C@H](CCC(=O)O)NC1=O
remaining activity (Interleukin-1 receptor-like 2 (IL1RL2, Homo sapiens, UniProt Q9HB29); reporter gene (SEAP), inhibitor, HEK-Blue IL-36R reporter; HEK-Blue IL-36R cells; 1.23 µM, 6 h, with: IL-36β 10 ng/mL): 90.6%

O=C1C=C(N2CCOCC2)C(=O)N1c1ccc(Cl)cc1
inhibition (USP5; enzyme activity, inhibitor; 17 µM): 0%

CC(=O)N[C@@H](CC(C)C)C(=O)N[C@H](C(=O)N[C@@H](Cc1ccc(O)cc1)C(=O)N[C@@H](CC(=O)O)C(=O)COC(=O)c1c(C)cccc1C)C(C)(C)C
kinact/KI (CASP9; enzyme activity, inhibitor): 27900 M⁻¹ s⁻¹

CC(C)[C@H]1CC[C@]2(C)C[C@H]3C(=C4CC[C@H](CO)[C@]5(O)CC[C@@]3(C)[C@]45C)C[C@@H]12
association rate constant (Protein S100-A8/S100A9 (Homo sapiens, UniProt P05109+P06702); binding, surface plasmon resonance; 1 K): 3550 M⁻¹ s⁻¹

CN(Cc1cc(C2CC2)on1)C(=O)c1cccc(-c2ccc3c(c2)CCO3)c1
reaction rate (Acetyl-coenzyme A synthetase, cytoplasmic (ACSS2, Homo sapiens, UniProt Q9NR19); enzyme activity, inhibitor, coupled pyrophosphate; 6.25 µM; higher is more activity): 0.00333 a.u.

CC(C)=CC1OC(C)(C)C2C=C3C(=O)C(Cl)=CC(O)C3C3C(O)C4OC4C(=O)C132 (centres unmarked)
remaining binding (EGFR L858R/T790M; cell-free assay, competition with immobilised ligand; 10 µM): 86%

CC(=O)N[C@@H](Cc1c[nH]c2ccccc12)C(=O)N[C@@H](CCCNC(=N)N)C(=O)N[C@@H](CO)C(=O)N[C@@H](CC(=O)O)C(=O)COC(=O)c1c(C)cccc1C
kobs/[I] (CASP4; inhibitor; recombinant enzyme): 16600 M⁻¹ s⁻¹

COc1cc(Nc2nccc(-c3cnn4nc(OC)ccc34)n2)cc(C(F)(F)F)c1
remaining binding (EGFR L858R/T790M; binding; 1 µM): 100%

CC[C@H](NC(=O)[C@H](CC(C)C)NC(C)=O)C(=O)N[C@@H](CCC1CCCCC1)C(=O)N[C@@H](CC(=O)O)C(=O)COC(=O)c1c(C)cccc1C
kinact/KI (CASP4; enzyme activity, inhibitor): 12800 M⁻¹ s⁻¹

Nc1nc(NCc2ccc(Cl)cc2)nn1S(=O)(=O)C1CCCCC1
probe labeling increase (Lysophospholipase-like protein 1; enzyme activity, activator, gel-based ABPP; purified protein; concentration not given, with: FP-rhodamine; relative to: DMSO): 1 fold

CC[C@H](NC(=O)[C@@H](NC(=O)[C@H](CC(=O)O)NC(C)=O)[C@@H](C)O)C(=O)N[C@@H](CC(=O)O)C(=O)COC(=O)c1c(C)cccc1C
kinact/KI (CASP4; enzyme activity, inhibitor): 16600 M⁻¹ s⁻¹

CCOC(=O)N1CCN(c2cc(NCCCC(=O)O)c3c4c(onc24)-c2ccccc2C3=O)CC1
inhibition (USP5; enzyme activity, inhibitor; 17 µM): 98%

Repeated from above:
Nc1nc(NCc2ccc(Cl)cc2)nn1S(=O)(=O)C1CCCCC1
probe labeling increase (Lysophospholipase-like protein 1; enzyme activity, activator, gel-based ABPP; purified protein; concentration not given, with: FP-rhodamine; relative to: DMSO): 1 fold

CC(C)[C@H]1CC[C@]2(C)C[C@H]3C(=C4CC[C@H](CO)[C@]5(O)CC[C@@]3(C)[C@]45C)C[C@@H]12
association rate constant (Protein S100-A8/S100A9 (Homo sapiens, UniProt P05109+P06702); binding, surface plasmon resonance; 1 K): 3550 M⁻¹ s⁻¹

COC(=O)[C@@]1(Cc2ccccc2)C=C(C(=O)OC(C)(C)C)C(=O)CC1
fraction bound (Mitogen-activated protein kinase 14 (MAPK14, Homo sapiens, UniProt Q16539, C162A); peptide binding, fluorescence polarization; 3.906 µM): 0.753

CC(=O)N[C@@H](Cc1c[nH]c2ccccc12)C(=O)N[C@@H](CCCNC(=N)N)C(=O)N[C@@H](CO)C(=O)N[C@@H](CC(=O)O)C(=O)COC(=O)c1c(C)cccc1C
kobs/[I] (CASP4; inhibitor; recombinant enzyme): 16600 M⁻¹ s⁻¹

Brc1ccc(CNc2ccc3cn[nH]c3c2)s1
inhibition (USP5; enzyme activity, inhibitor; 17 µM): 95%
